Measured values from different studies.
Every numbered part comes from another study and shows a few of its results, in no order. Changes are numbered by the printed parent chain.

Series 1 — technique: Spec-seq; form: double-stranded DNA, one strand shown; medium: in vitro; concentration: not given; setting: whole probe, mean of replicates; relative to: not given; direction: lower = stronger binding; constant ends, left off below: GAGTCGTCTCGTCAGCAC … CCGTAGAGCACTCAGGTC
Target: Transcription factor SOX-2, HMG box (Sox2, Mus musculus, UniProt P48432, residues 41-119)
UniProt P48432, sequence (41-119, looked up): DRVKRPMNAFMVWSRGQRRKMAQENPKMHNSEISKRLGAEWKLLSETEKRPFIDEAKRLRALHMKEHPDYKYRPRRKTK
Oligonucleotide	relative binding energy
CATCACA	0.54 ln ratio
GTACGTT	0.944 ln ratio
CATACAC	-0.511 ln ratio
CATGGTT	-0.0844 ln ratio
CATCTTC	0.978 ln ratio
AAGAGTT	-0.0554 ln ratio
ACATGTT	0.0808 ln ratio
GACGGTT	1.35 ln ratio
CGCCGTT	1.18 ln ratio
CATGGGA	0.0228 ln ratio
GTTTGTT	-1.17 ln ratio
TCCTGTT	0.48 ln ratio
GGGAGTT	1.46 ln ratio
CATCTCT	0.74 ln ratio
AAGCGTT	0.433 ln ratio
GAGCGTT	1.16 ln ratio

Series 2 — technique: RNA Bind-n-Seq; form: RNA; medium: in vitro; concentration: 365 nM; relative to: no-protein control; direction: higher = stronger binding
Target: RNA binding protein fox-1 homolog 2, RRM domain, GST-SBP tag (RBFOX2, Homo sapiens, UniProt O43251-10, residues 100-194)
Setting: natural RNA segment, single round, ends assumed
Target sequence (chain): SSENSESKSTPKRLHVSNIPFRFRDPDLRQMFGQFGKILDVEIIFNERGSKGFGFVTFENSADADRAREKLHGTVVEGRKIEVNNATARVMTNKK
Oligonucleotide	RBNS enrichment (R)
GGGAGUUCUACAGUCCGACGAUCCGACACUGACGUCCACCGUGCAUGUGGCUGAGGGAGAGAGCCAGCUGGUUGUUUCUGGUAUAGCUGUGCCACGAGAGCCCAGCUUGCUGUUGCUGCGGCCCUGGGGUUUAUGGAAUUCUCGGGUGCCAA	8.45
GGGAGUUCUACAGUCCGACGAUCGGAUGGGUGGGGUGCGCUUCUUUAUACCAGGAGCACGUGGCUCUUUCUGACCUUUGGCCUGUUCUAGUGCCUAAUCUCCAUUAUUAAAUACUGGCUUCUCCCAACUUCCUUGGAAUUCUCGGGUGCCAA	0.212
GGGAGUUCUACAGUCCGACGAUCCCACCACCUUGGAUGCAGCCACCACCACCACCGAUGAACCAGGGCCCCCACCCACCUGGGCACCAUGGCCCUCCUCCAAUGGGUAAGUCAGUACCUGGGAAGUACGCCUGUGGAAUUCUCGGGUGCCAA	0.428
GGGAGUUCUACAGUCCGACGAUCAGGGCCUUCUUAAGAUACAAAUGGUGGAGGAUUGCUGCCAGAGAAGUCUGGUCAGAGCCACAGGGUCUGCCUCCAGCCAAACGGGAGCUUUUGGUGAGAAGGUGUUGGACUGGAAUUCUCGGGUGCCAA	0.817
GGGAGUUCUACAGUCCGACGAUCUCGAAAAUGACAAAUGCAACAGCGAGCCCUUUGUGUCCAGCUAAGCUAAAGUCUCCUCAGUGUGCAGCCAGAUUCCUGGGGACUGCUGAGUGUGGUUACAGGCUGCAUUUUGGAAUUCUCGGGUGCCAA	0.349
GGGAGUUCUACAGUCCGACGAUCAGUGGGGCCCGCACUCAGAACUGUGAGGAGGGUGGAGAGUGGUCCUGACCCUCAGUUCCCAGAGGACCUAGAGGCUCGAGGGUGGGGCCUGCCUUUCUUGAUGUCCAAUGUGGAAUUCUCGGGUGCCAA	0.721
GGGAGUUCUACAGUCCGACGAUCGGCCCAUAGGAGCAGUCCCGCUGCACAAUGGUAGGCAUAGGCCAUGGCACUGGACUGCCUCUAAGGACUGCUAAAAAGAAUAUUUUUUUGUGGUGUCAGAACUGGAAAAAUGGAAUUCUCGGGUGCCAA	0.451
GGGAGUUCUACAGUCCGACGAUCCUUCCUUAGAGCCUGAGUGGUGUGAGGUGACAGGUCUCUCUCUCCACUGCCCCUUUCUGGUUUAAAAAAAUGGUGCUUGAUGAGGGAAGGUAGACUCUUCCCUAGGACUGUGGAAUUCUCGGGUGCCAA	0.498

Series 3 — target: CCND3, cyclin fold, Cln2 fusion (human); technique: yeast growth competition, sequencing; medium: yeast; setting: weak parent motif; relative to: not given; direction: higher = stronger binding
Starting sequence: CDKN1A docking peptide (human); SKACRRLFGPVDS
Variant	normalised enrichment score
K2V	0.516
R5T	0.103
R6W	0.0944
L7R	-0.00043
F8C	0.171
G9W	0.365
D12T	0.573
L7C	0.286
R5V	0.0568
A3I	0.149
R6E	0.145
L7N	0.316
C4N	0.0551
P10S	0.365
A3Y	-0.0437

Series 4 — technique: RNA Bind-n-Seq; form: RNA; medium: in vitro; concentration: 200 nM; setting: whole 134-nt RNA, ends assumed; added: 150 mM LiCl; relative to: input library; direction: higher = stronger binding; all molecules: 7-deaza-guanosine replaces G
Target: Fragile X messenger ribonucleoprotein 1, C-terminal low-complexity region (Fmr1, Mus musculus, UniProt P35922)
Oligonucleotide	log2 enrichment
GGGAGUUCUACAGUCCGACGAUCCCUCAAGUCCUGUGCUACACAUCGUAUGUACCGAAUCGGGAGGGGAGGGAGGGAAAGUAUUAUGUUACGCCGUUCGGAUCUGCACUUCCAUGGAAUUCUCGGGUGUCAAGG	-1.09
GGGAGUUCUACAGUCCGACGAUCAAGUCCUGUGCUACACAUCGUAUGUACCGAAUCGGGAAAAAGGGAAAAAGGGUGGGAAAGUAUUAUGUUACGCCGUUCGGAUCUGCACUUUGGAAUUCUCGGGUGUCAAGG	-1.04
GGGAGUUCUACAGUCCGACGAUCUUUUACUUCUCCGCCAGGUGCUGUGCUCCAUCAUCGCCGGUACCUUGCACUAUCUCUACCUGGCCACCUUGACCUGGAUGCUGCUGGAGGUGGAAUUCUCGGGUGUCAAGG	0.963
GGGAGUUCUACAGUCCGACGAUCGUCCUGUGCUACACAUCGUAUGUACCGAAUCGGGGUUUUUGGUUUUUGGGGUUUUUGGAAAGUAUUAUGUUACGCCGUUCGGAUCUGCACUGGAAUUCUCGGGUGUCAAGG	-1.1
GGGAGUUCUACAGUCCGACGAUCUAACUUUAGAGGAGGAUCUGAUGGAUAUGGCAGUGGACGUGGAUUUGGGGAUGGCUAUAAUGGGUAUUGAGGAGGACCUGGAGGUGGCAAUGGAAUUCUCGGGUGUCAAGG	0.0876
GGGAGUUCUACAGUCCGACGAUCCACAGACAACACGCACCCACACAGACACAGAGGGAAGGGGUUGCGAUGGGGACAGGGUGCACAGCAGGGCGGGGUAGGACCCCAGCCCCUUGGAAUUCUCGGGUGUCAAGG	-1.28
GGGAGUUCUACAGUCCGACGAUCUGGGAGGUGGAUUUUGUUUAUUUUUUUAGCUCAUUUCCAGGGGUGGGAAUUUUUUUUUAAUAUGAGUCAUGAAUAAAGUUGUUUUUGAAAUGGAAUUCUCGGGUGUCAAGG	0.0551
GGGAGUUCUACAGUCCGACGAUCUUCUUGCCUAUGCUGUGCGCCACACCAUCCAGGUGUACCGGCUCUCCAAGUACAACACGGAAGAAUUCAUCACAGUCUACCCCACCGACCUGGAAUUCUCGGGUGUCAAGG	1.94
